Assay results pooled from the literature.
A part holds a random share of what one study measured. Positions count from the first letter of the parent shown.

Set 1 — target: CCNA2, cyclin fold, Cln2 fusion (human); technique: yeast growth competition, sequencing; matrix: yeast; notes: strong parent motif; baseline: not given; reading: higher = stronger binding; measurement: normalised enrichment score
Starting sequence: CDKN1A docking peptide (human); SKACRRLFGPVDS
Substitution = L7C; value = 0.541
Substitution = R5E; value = 0.117
Substitution = P10Q; value = 5.29
Substitution = A3E; value = 0.304
Substitution = C4H; value = 4.24
Substitution = P10V; value = 5.07
Substitution = A3Y; value = 2.5
Substitution = R6L; value = 2.4
Substitution = R6M; value = 4.9
Substitution = K2L; value = 4.23
Substitution = A3Q; value = 0.865
Substitution = R5Y; value = 0.47
Substitution = A3D; value = 0.504
Substitution = L7P; value = 0.506
Substitution = F8C; value = 0.519
Substitution = V11N; value = 5.9
Substitution = P10A; value = 5.28
Substitution = D12F; value = 4.56
Substitution = A3I; value = 5.25
Substitution = P10W; value = 4.31
Substitution = R5N; value = 0.458
Substitution = C4L; value = 1.69
Substitution = P10C; value = 5.09

Set 2 — technique: protein-binding microarray; form: double-stranded DNA, one strand shown; matrix: in vitro; concentration: not given; reading: higher = stronger binding; measurement: E-score
Target: Cyclic AMP-dependent transcription factor ATF-1 (ATF1, Homo sapiens, UniProt P18846, residues 1-271, full length assumed)
Notes: k-mer, scored over probes, only values ≥0.25
Target sequence (chain): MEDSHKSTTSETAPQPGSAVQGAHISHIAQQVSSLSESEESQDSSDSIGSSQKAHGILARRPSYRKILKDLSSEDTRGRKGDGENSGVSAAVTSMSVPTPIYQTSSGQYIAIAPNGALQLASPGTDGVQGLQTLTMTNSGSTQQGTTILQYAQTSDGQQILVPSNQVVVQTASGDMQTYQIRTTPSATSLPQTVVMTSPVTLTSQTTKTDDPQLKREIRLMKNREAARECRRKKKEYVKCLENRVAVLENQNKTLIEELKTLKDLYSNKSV
Strand = ACGTAAC; value = 0.438
Strand = CGACGTA; value = 0.421
Strand = ACGTCGA; value = 0.302
Strand = CGTCATC; value = 0.489
Strand = ACATCAC; value = 0.358
Strand = ATTACGA; value = 0.285
Strand = ACGCATC; value = 0.308
Strand = GCATGAC; value = 0.366
Strand = CACGTCA; value = 0.49
Strand = CACGTCG; value = 0.309
Strand = CTACGTA; value = 0.443
Strand = GACGTGC; value = 0.287
Strand = TAGATGA; value = 0.278
Strand = CGTGTTA; value = 0.26
Strand = AACGTCA; value = 0.479
Strand = ATGACGG; value = 0.424

Set 3 — technique: protein-binding microarray; form: double-stranded DNA, one strand shown; matrix: in vitro; concentration: 2200 nM top; notes: 60-bp whole probe; with: salmon DNA 0.4 mg/ml; baseline: random background probes; reading: higher = stronger binding; measurement: fitted relative affinity; shared flanks, not repeated: GCCTAGCAC … GTCTTGATTCGCTTGACGCTGCTG
Target: Interferon regulatory factor 7, full length, phosphomimetic (IRF7, Homo sapiens, UniProt Q92985, residues 1-503, S471D/S472D/S475D/S476D/S477D/S483D/S484D/S487D)
Sequence of UniProt Q92985 (whole entry, unmodified, looked up): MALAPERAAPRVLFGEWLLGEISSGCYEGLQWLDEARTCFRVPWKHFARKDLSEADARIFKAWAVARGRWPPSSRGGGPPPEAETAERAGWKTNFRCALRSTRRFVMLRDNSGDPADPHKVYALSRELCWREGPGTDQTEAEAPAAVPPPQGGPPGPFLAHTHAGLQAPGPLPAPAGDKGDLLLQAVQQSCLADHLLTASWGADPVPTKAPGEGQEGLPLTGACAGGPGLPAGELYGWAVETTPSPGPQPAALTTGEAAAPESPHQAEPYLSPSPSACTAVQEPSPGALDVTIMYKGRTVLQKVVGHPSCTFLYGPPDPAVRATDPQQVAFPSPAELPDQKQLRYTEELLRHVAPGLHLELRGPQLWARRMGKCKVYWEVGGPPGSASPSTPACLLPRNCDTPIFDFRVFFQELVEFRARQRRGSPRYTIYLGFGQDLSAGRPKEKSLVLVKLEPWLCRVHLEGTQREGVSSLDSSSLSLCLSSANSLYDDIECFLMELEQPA
Strand = CCCTTATTCTAGCCTCCATTTGTGCTA; value = 1.67 z-score
Strand = GACGGTATCGGCTTTCGGGACGTGCTA; value = 1.39 z-score
Strand = TTAGAACTGGGGTATGGATTAGTGCTA; value = -0.0396 z-score
Strand = TTAGGTATCGGACTGGGATAGTGCTAG; value = -0.123 z-score
Strand = GACGGACTGGGGACTGGAGACGTGCTA; value = -0.838 z-score
Strand = TGTGTTATTAAATTTTCACGGGTGCTA; value = 0.405 z-score
Strand = TCATCTTTCTAATTCAAACTGTGCTAG; value = 2.37 z-score
Strand = TTAGGTTTCGGGTTTCGGCTAGTGCTA; value = 8.83 z-score
Strand = GACGGACTGGGGTTTCTGGACGTGCTA; value = -0.555 z-score
Strand = TTAGAACTGGGATATCGATTAGTGCTA; value = -0.373 z-score
Strand = TAAGGTATCGGTTTCGGTTAGTGCTAG; value = 7.13 z-score
Strand = CTTTAGAGCAAGAACAGCCTGTGCTAG; value = -0.729 z-score
Strand = TCAAAGCAAAAATGATTACTGTGCTAG; value = -0.408 z-score
Strand = TCAAGTTTCTCAACCACACTGTGCTAG; value = 0.995 z-score
Strand = TACTTTCTATCTCTGTTTTTGTGCTAG; value = 7.47 z-score
Strand = TTAGATATCGGGACTGGATCAGTGCTA; value = -0.176 z-score
Strand = GACGGACTGCATCTCCTGACGTGCTAG; value = 0.392 z-score
Strand = TCAGTTATCACTTCCAAACTGTGCTAG; value = 1.78 z-score
Strand = GCAGGGCTCTCTTCTGCTTCCGTGCTA; value = -0.298 z-score
Strand = TTAGATCTCATTTTCGATTAGTGCTAG; value = 5.73 z-score
Strand = TTAGTTATCGGTCTCGGTTAGTGCTAG; value = 1.6 z-score
Strand = ATATATGTGTATATATAATAGTGCTAG; value = 0.373 z-score
Strand = TCATCTTTCACTGCTCCAACTGTGCTA; value = 2.34 z-score
Strand = CACGGTTTCGACTATCGGGACGTGCTA; value = 3.91 z-score
Strand = CCGAGAAACAGTAACCCTCTGTGCTAG; value = -0.0257 z-score

Set 4 — technique: aptamer microarray, sandwich; form: DNA with 2'F-ANA; matrix: in vitro; concentration: 200 nM; with: Cy3 exosite-II aptamer, 400 nM; reading: higher = stronger binding; measurement: mean fluorescence intensity; strand: GGTTGGTGTGGTTGG
Target: Prothrombin, mature alpha-thrombin (F2, Homo sapiens, UniProt P00734)
Notes: whole 15-mer aptamer, many near background
Modification = 2'F-ANA at 2 3 4 5 8 11 14 15; value = 76.6 a.u.
Modification = 2'F-ANA at 1 2 3 4 6 12 13 14 15; value = 67.4 a.u.
Modification = 2'F-ANA at 2 4 5 7 11 12 13; value = 76.7 a.u.
Modification = 2'F-ANA at 2 3 4 6 7 10 11 14; value = 144 a.u.
Modification = 2'F-ANA at 1 2 3 4 5 13; value = 58.8 a.u.
Modification = 2'F-ANA at 2 9 15; value = 406 a.u.
Modification = 2'F-ANA at 1 3 5 6 8 11 14; value = 47.5 a.u.
Modification = 2'F-ANA at 1 3 4 6 9 11 12 13; value = 210 a.u.
Modification = 2'F-ANA at 1 2 3 4 6 7 10 12 13 14 15; value = 56.4 a.u.
Modification = 2'F-ANA at 1 5 6 7 8 10 11 12 13 14 15; value = 48.5 a.u.
Modification = 2'F-ANA at 2 5 6 7 8 10 11 12 13; value = 49.9 a.u.
Modification = 2'F-ANA at 1 5 7 8 11 12 13 14; value = 46.6 a.u.
Modification = 2'F-ANA at 1 4 5 6 8 10 11 14 15; value = 53.8 a.u.
Modification = 2'F-ANA at 1 2 3 4 7 8 10 13 15; value = 58.3 a.u.
Modification = 2'F-ANA at 1 5 8 11; value = 51.8 a.u.
Modification = 2'F-ANA at 1 2 5 6 11 14; value = 51.9 a.u.
Modification = 2'F-ANA at 2 6 8 10 11 12 14 15; value = 77.8 a.u.
Modification = 2'F-ANA at 4 7 9 10 11 13 14 15; value = 59.7 a.u.
Modification = 2'F-ANA at 1 6 7 8 11 12 14; value = 79.7 a.u.
Modification = 2'F-ANA at 3 4 5 7 8 9 13 14; value = 50.7 a.u.
Modification = 2'F-ANA at 1 6 7 10 11 12 15; value = 63.3 a.u.
Modification = 2'F-ANA at 1 2 5 7 8 9 12 13 14; value = 45.5 a.u.
Modification = 2'F-ANA at 2 3 6 10; value = 372 a.u.
Modification = 2'F-ANA at 2 6 7 9 11 12 14 15; value = 128 a.u.
Modification = 2'F-ANA at 5 8 9 10 11 13 14; value = 46 a.u.

Set 5 — technique: universal PBM; form: double-stranded DNA, one strand shown; matrix: in vitro; concentration: not given; reading: higher = stronger binding; measurement: E-score
Target: Sal-like protein 4, full length isoform B (SALL4, Homo sapiens, UniProt Q9UJQ4-2, residues 1-616)
Notes: 8-mer, flanks averaged, mean of replicates
Residues (chain): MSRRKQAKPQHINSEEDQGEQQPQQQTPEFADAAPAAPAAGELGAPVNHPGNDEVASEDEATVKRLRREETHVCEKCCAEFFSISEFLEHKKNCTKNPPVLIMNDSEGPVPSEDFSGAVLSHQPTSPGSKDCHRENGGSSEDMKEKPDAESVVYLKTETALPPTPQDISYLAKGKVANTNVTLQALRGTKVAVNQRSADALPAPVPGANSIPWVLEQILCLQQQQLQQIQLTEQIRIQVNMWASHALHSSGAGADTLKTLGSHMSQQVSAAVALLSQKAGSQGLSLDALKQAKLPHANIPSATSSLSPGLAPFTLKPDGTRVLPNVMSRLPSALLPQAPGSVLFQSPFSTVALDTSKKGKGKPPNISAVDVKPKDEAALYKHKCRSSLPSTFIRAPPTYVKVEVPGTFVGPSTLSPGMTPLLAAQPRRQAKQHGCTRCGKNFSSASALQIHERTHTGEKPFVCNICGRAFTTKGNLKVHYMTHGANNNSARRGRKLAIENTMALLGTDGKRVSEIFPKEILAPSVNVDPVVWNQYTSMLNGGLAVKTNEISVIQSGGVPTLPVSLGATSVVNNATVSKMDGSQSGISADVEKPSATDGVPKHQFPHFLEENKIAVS
Strand = CGCCTGGC; value = -0.259
Strand = GAGGTATC; value = -0.145
Strand = ACCCCAGT; value = -0.172
Strand = TCGATCGA; value = -0.0651
Strand = GATAGCCC; value = -0.187
Strand = CCTTCCAG; value = -0.218
Strand = CTTGAAGA; value = 0.0207
Strand = TGTTGGAA; value = 0.131
Strand = CACCCGCG; value = -0.237
Strand = AGCATCCC; value = -0.132
Strand = GAAGTTTA; value = 0.181
Strand = GGTACAAC; value = 0.0371
Strand = ACAGCTCA; value = -0.152
Strand = AGCTCATC; value = -0.223
Strand = AATTAGGC; value = 0.2
Strand = AAGTGCAG; value = -0.0278
Strand = GCTGCTAA; value = -0.222
Strand = CATCGCGC; value = -0.231
Strand = AATTCTCC; value = -0.0477
Strand = CGCAGGCC; value = -0.332
Strand = GTTTCCGA; value = -0.256
Strand = ACCTTTTA; value = 0.0709
Strand = ACGTAGGA; value = 0.0325
Strand = AAGACCTG; value = -0.209
Strand = GGCCAATA; value = 0.151

Set 6 — technique: protein binding microarray; form: double-stranded DNA, one strand shown; matrix: in vitro; concentration: not given; baseline: not given; reading: higher = stronger binding; measurement: E-score
Target: Histone acetyltransferase KAT6A, winged helix 2, GST fusion (KAT6A, Homo sapiens, UniProt Q92794, residues 85-181)
Notes: 8-mer, flanks averaged, mean of 2 arrays, mostly near background
Residues (chain): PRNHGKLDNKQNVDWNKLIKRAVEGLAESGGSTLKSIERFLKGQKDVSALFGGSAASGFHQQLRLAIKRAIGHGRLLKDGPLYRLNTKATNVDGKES
Strand = ACGGCACA; value = 0.0989
Strand = AGGCCATG; value = -0.0284
Strand = GTTGCAAA; value = 0.178
Strand = AGGCGCCG; value = 0.21
Strand = AGCTTCCT; value = 0.0779
Strand = TACCTAAA; value = -0.159
Strand = CCGAAGTC; value = -0.116
Strand = ACGCGTTC; value = 0.0665
Strand = CCAGCTGA; value = 0.102
Strand = TCTAAGCA; value = -0.113
Strand = CCACACTA; value = 0.0614
Strand = CATCCATA; value = -0.0449
Strand = TTCAACAA; value = 0.00362
Strand = GAAGGCTA; value = 0.053
Strand = CTACGGTC; value = -0.165
Strand = CCATAGCA; value = -0.112
Strand = AAAGGGGC; value = 0.0692
Strand = AATTAGGC; value = 0.126
Strand = CAAGCTCC; value = 0.0337
Strand = CACAGAAC; value = -0.00822
Strand = AAGGCTGT; value = -0.161
Strand = CGCCCCGA; value = 0.175
Strand = ACTAGAGG; value = -0.0555
